Results collected from several papers.
Parts stem from different laboratories: compare values within a part only.

Sample 1 — technique: protein binding microarray; form: double-stranded DNA, one strand shown; medium: in vitro; tested at: not given; baseline: not given; reading: higher = stronger binding
Target: Histone acetyltransferase KAT6A, both winged helices, GST fusion (KAT6A, Homo sapiens, UniProt Q92794, residues 1-181)
Notes: 8-mer, flanks averaged, mean of 2 arrays, mostly near background
Construct (chain): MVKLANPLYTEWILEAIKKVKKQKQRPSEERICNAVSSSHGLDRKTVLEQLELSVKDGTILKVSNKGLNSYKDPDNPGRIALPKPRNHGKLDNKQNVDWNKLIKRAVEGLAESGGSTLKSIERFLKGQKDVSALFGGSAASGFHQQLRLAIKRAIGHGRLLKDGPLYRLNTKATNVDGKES
For `GACATGTA`, the E-score was 0.023.
`ATCCTCAC` has an E-score of -0.13.
`AGCTTTCC` has an E-score of 0.0874.
For `TACCACAA`, the E-score was -0.177.
The E-score of `AGGAGAAC` is reported as 0.00915.
For `CCATCCCC`, the E-score was -0.241.
`CGTTGCTC` gave an E-score of 0.151.
The E-score of `ATCACTTA` is reported as -0.106.

Sample 2 — technique: competition protein-binding microarray; form: double-stranded DNA, one strand shown; medium: in vitro; tested at: 2 µM; with: Pho4 competitor, 0.05 µM; reading: higher = stronger binding
Target: Centromere-binding protein 1, full length, His-tagged (CBF1, Saccharomyces cerevisiae, UniProt P17106, residues 1-351)
UniProt P17106, sequence (whole entry, looked up): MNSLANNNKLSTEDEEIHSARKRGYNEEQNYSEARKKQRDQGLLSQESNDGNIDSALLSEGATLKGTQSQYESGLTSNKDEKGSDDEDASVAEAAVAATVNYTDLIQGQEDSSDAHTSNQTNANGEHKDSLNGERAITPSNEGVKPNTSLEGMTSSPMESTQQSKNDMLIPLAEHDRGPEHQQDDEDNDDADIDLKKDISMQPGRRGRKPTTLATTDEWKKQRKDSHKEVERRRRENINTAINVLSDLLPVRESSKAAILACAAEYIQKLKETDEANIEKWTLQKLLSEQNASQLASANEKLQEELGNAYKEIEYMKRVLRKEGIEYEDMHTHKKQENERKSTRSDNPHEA
Notes: whole 60-bp probe, lowest competitor level
`CTTGCCGAGATGGTGTTCGTGACGGAAATTGTGGAAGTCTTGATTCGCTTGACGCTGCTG` has a fluorescence intensity of 90.3 a.u.
The fluorescence intensity of `GCTCGCAGGGTCAACCACGTGCTGGGGAGAGGAGCCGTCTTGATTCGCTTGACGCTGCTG` is reported as 1210 a.u.
The fluorescence intensity of `ATGCGATTCGGCCATCACGGGAGAGTCGACTAGTTCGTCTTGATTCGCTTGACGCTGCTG` is reported as 98.8 a.u.
The fluorescence intensity of `CTGGAATGGCTCGGCCACATGGGTGGGATTACCCGCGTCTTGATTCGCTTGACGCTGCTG` is reported as 65 a.u.
`ACTCTACGGATGAGTCAGGTGATGGGTCTTATCAAGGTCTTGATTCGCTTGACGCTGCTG` gave a fluorescence intensity of 816 a.u.
`ATTAGGGGACCTACACGCCTGAAAGTTTTTTAGATAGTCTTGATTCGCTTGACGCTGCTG` has a fluorescence intensity of 65.5 a.u.
`TGCGTTTTGGTCTACGATGTGACAGTTGCCAGTTCCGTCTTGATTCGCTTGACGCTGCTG` gave a fluorescence intensity of 80.1 a.u.
With `CGGGGTTAAGTTTGTACGGTGGGTGGCTTGCAGCAGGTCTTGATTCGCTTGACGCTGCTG` the fluorescence intensity was 52.8 a.u.
`CATACCCAACCTTGTCACTCGACTTAAGATATTTGTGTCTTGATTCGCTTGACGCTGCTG` has a fluorescence intensity of 89.8 a.u.

Sample 3 — technique: RNA Bind-n-Seq; form: RNA; medium: in vitro; tested at: not given; notes: RNA with constant flanks, ends assumed; baseline: input RNA pool; reading: higher = stronger binding
Target: RING finger protein unkempt homolog, zinc fingers 1-6, GST-SBP tag (UNK, Homo sapiens, UniProt Q9C0B0, residues 30-357)
UniProt Q9C0B0, sequence (30-357, looked up): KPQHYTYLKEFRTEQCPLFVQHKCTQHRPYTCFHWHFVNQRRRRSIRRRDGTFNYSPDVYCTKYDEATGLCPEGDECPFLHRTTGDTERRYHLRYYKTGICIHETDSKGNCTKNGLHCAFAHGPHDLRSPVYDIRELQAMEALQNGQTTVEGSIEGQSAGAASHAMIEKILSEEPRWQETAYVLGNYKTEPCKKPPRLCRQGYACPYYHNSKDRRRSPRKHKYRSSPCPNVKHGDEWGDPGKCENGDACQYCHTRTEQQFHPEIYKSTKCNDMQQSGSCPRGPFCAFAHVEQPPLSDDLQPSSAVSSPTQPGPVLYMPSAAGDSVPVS
`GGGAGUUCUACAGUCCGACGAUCGCGGCCUCAUUGCUACGAUUUCAGAGUACCCUGGUAAUAGCUGAGCAUGCAAAUGAUUCCCCCGCACCCAUUACUUUAAAUACCAUUACUGCAGCCACACGCCUUGGAGGUGAAGUGUCCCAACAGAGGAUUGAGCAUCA` has a bound/input enrichment of 0.479 ratio.
The bound/input enrichment of `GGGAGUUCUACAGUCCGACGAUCGAAUUUGCCUAUACUUCUGUACUAAGUUUUGAUUUCUGUAGCAUGGCUGAUGUAGCCAUCUCCGCUCGUCAUCUUUUCAUGUCAGAAGUCUUAGAGAUUUGUGAAAGUGUACAUAAGCUACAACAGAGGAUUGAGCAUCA` is reported as 0.22 ratio.
For `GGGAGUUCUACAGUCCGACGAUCCCCCCAACUGUUCACCUUUAGAAAUGUCCAGACAAGGAGCCUGGUCUGCUUAUAUCAUGGUCCGGGAUGAUAGUCCGGACUAGCCAGGGUCAAAGUUGCUUUUAAUGUAGAGCCCAACCCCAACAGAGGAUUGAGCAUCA`, the bound/input enrichment was 1.84 ratio.
With `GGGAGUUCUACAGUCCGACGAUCGAGAAAGAAAUCCCACCAAAGGAGAUGGAGAAAUCAAAAAUUAAACGACUGUAUAAAUUAUCCGAGAUCUGGAUCGAGUUUGGGCGCAUCAAACUCCUUCAAGGUUAUCAUCCGAACGACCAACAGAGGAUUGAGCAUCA` the bound/input enrichment was 0.34 ratio.
`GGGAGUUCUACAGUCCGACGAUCGUUGAUUCCCUCAACGGGUUAGUUUACGUAGCCCAAAGAGGGGAUAACAUCCCCAAGGUAUCCGUGUUCUCAGAGGAUGGCUAUUUCCUACGAGCCUGGAAUUAUACAGUUGACACACCCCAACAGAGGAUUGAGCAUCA` gave a bound/input enrichment of 0.123 ratio.

Mixed results
With `PhoQ, residues 284 288 289 292 302 303 SVTLVV` the fold induction was 2.67 (PhoP, residues 12 14 15 18 19 GQALL (Escherichia coli, UniProt P23836); Sort-seq, item: YFP reporter; E. coli; PhoQ-PhoP variant library, with: 10 µM Mg2+; baseline: high Mg2+ state, higher = stronger signaling).

Some of these lines once more (sample 2):
`ATTAGGGGACCTACACGCCTGAAAGTTTTTTAGATAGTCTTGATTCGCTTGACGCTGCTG` has a fluorescence intensity of 65.5 a.u.
The fluorescence intensity of `ATGCGATTCGGCCATCACGGGAGAGTCGACTAGTTCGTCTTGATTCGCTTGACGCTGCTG` is reported as 98.8 a.u.
`ACTCTACGGATGAGTCAGGTGATGGGTCTTATCAAGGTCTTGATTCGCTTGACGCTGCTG` gave a fluorescence intensity of 816 a.u.
The fluorescence intensity of `CTGGAATGGCTCGGCCACATGGGTGGGATTACCCGCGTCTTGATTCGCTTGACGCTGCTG` is reported as 65 a.u.
